Results pooled from the literature.
Numbers after ± are the reported error. Values after ≈ are worked out from the molar mass of the structure shown.

`C#CCOc1ccc(/C=C2\SC(=O)N(CC(=O)NCc3ccccc3)C2=O)cc1` gave a correlation volume of 5380 cm³/mol (inverse Kirkwood-Buff integrals; binary solvent mixture; concentration not given, 298.15 K, mole fraction x1 0.80).
`CCN(CC)CCN=S(=O)(c1ccccc1)N1CCCCC1` (stereo not drawn) has a recovery of 100% (HCl buffer; 24 h, pH 1, hydrolytic stability).
Under “patients with treatment-related adverse event”, `CC(C)c1cnc(-c2cc(Cl)ccc2F)cc1Nc1ccncc1C(=O)NC(CO)CO` is recorded as 0% (monotherapy, refers to: vomiting; human patients; oral, dose not given, grade 5, phase I A).
For `COC[C@@H](CC(C)C)NC(=O)c1ccc(CO)c(C)c1`, “metabolite peak area” read 3.9% (LC-MS; human liver microsomes; 10 µM of parent drug, 10 min, pH 7.4, with: NADPH; reference: parent drug at time zero).
`O=C1C[C@@H](c2ccc(O)cc2)Oc2cc(O)ccc21` has a renal clearance of 0.35 to 1 mL/min/kg (human, both sexes; oral, 12 capsules).
Under “fraction excreted unchanged”, `CC(C)(Sc1cc[n+]([O-])cc1-c1ccc(C#N)c2ccccc12)C(=O)OC1OC(C(=O)O)C(O)C(O)C1O` (stereo not drawn) is recorded as 18% (urine; oral, 15 mg, 72 h, normal renal function; reference: dose).
`Cn1cnnc1Sc1c2c(c(C#N)c3nc4ccccc4n13)CCCC2` gave a plasma concentration of 1 ng/mL (C57BL/6 mouse, plasma; intravenous, 0.3 µg/g, 30 min).
For `O=C(O)C1OC(OC2C(COS(=O)(=O)O)OC(OC3C(C(=O)O)OC(OC4C(COS(=O)(=O)O)OC(OC5C(C(=O)O)OC(OC6C(COS(=O)(=O)O)OC(OC7C(C(=O)O)OC(OC8C(COS(=O)(=O)O)OC(OC9C(C(=O)O)OC(OC%10C(COS(=O)(=O)O)OC(OC%11C(C(=O)O)OC(Oc%12ccc([N+](=O)[O-])cc%12)C(O)C%11O)C(NS(=O)(=O)O)C%10O)C(OS(=O)(=O)O)C9O)C(NS(=O)(=O)O)C8O)C(OS(=O)(=O)O)C7O)C(NS(=O)(=O)O)C6O)C(OS(=O)(=O)O)C5O)C(NS(=O)(=O)O)C4O)C(OS(=O)(=O)O)C3O)C(NS(=O)(=O)O)C2OS(=O)(=O)O)C(O)C(O)C1OC1OC(COS(=O)(=O)O)C(O)C(O)C1NS(=O)(=O)O` (stereo not drawn), “blood urea nitrogen” read 17.8 ± 2.4 mg/dL (rats, serum; intravenous, 3600 µg/kg/day for 7 days, day 8).
With `CCCC[C@H](NC(=O)CN1CCC(NC(=O)CN2CCN(CC(=O)O)CCN(CC(=O)O)CCN(CC(=O)O)CC2)CC1)C(=O)N[C@H]1CC(=O)NCCCC[C@@H](C(N)=O)NC(=O)[C@H](Cc2c[nH]c3ccccc23)NC(=O)[C@H](CCCNC(=N)N)NC(=O)[C@@H](Cc2ccccc2)NC(=O)[C@H](Cc2c[nH]cn2)NC1=O` [gallium-68 labelled] the uptake ratio was 0.8 ± 0.2 (male C57BL/6J mice, B16-F10 tumours, tumour, blood; intravenous, 1 h, blocking study, with: 100 µg non-radioactive Ga-peptide; reference: tumour over blood).
`CC(C)(Sc1ccncc1-c1ccc(C#N)c2ccccc12)C(=O)OC1OC(C(=O)O)C(O)C(O)C1O` (stereo not drawn) has a renal clearance of 201 mL/min (human, urine; oral, 15 mg, 72 h, normal renal function).
`O=C([O-])CN1CCN(CC(=O)[O-])CCN(C(CCC(=O)NCCCCCN(CCCC[C@H](NC(=O)N[C@@H](CCC(=O)O)C(=O)O)C(=O)O)C(=O)c2ccc(I)cc2)C(=O)O)CCN(CC(=O)[O-])CC1.[68Ga+3]` (stereo partly drawn) gave an SUVmean of 2.5 ± 0.7 (PET/CT; prostate cancer patients, liver; 60 min post-injection).
`Cn1c(=O)oc2ccc(-c3ccc(CC(C#N)NC(=O)C4CNCCCO4)c(F)c3)cc21` (stereo not drawn) gave an acne incidence of 0% (human; oral, 40 mg once daily, treatment-related AE, multiple ascending dose).
With `CCCC[C@@H]1NC(=O)[C@@H](NC(=O)[C@H](CCC(=O)O)NC(=O)CNC(=O)CN2CCN(CC(=O)O)CCN(CC(=O)O)CCN(CC(=O)O)CC2)CCCCNC(=O)C[C@@H](C(N)=O)NC(=O)[C@H](C(C)C)NC(=O)[C@@H]2CCCN2C(=O)[C@H](CCCNC(=N)N)NC(=O)CNC(=O)[C@H](Cc2c[nH]c3ccccc23)NC(=O)[C@H](CCCNC(=N)N)NC(=O)[C@@H](Cc2ccccc2)NC(=O)[C@H](Cc2c[nH]cn2)NC(=O)[C@H](CCC(=O)O)NC1=O` [gallium-67 labelled] the tissue uptake was 0.02 ± 0.02 %ID/g (C57 mice, B16/F10 lung metastatic melanoma, heart; intravenous, 0.037 MBq, 2 h).
For `CC1(C)CNC(=O)c2ccccc21`, the oral bioavailability was 62 ± 10% (Sprague-Dawley rat, male; 5 mg/kg oral, 1 mg/kg intravenous).
`CC(C)(C)c1nc(-c2ccc(NC(=O)c3cccs3)cc2Cl)no1` has a thermodynamic solubility of 67.8 ± 6.4 µg/mL (≈ 187 µM) (PBS; 24 h, pH 7.4, room temperature).
`O=C([O-])CN1CCN(CC(=O)[O-])CCN(CC(=O)NC[C@H]2CC[C@H](C(=O)N[C@H](Cc3cnc4ccccc4c3)C(=O)NCCCC[C@H](NC(=O)N[C@@H](CCC(=O)O)C(=O)O)C(=O)O)CC2)CCN(CC(=O)[O-])CC1.[64Cu+2]` has an absorbed dose of 0.0198 mGy/MBq (PET/CT dosimetry; healthy human volunteers, heart).
With `CC(C)[C@H](NC(=O)CNC(=O)[C@H](CCC(N)=O)NC(=O)[C@H](C)N)C(=O)O` the AUC(0-last) was 241 ng·h/mL (LC-MS/MS; human, plasma; intravenous, 10 mg/kg three times daily, day 2, first dose, 10 min infusion, geometric mean).
Under “metabolite to parent ratio, Cmax”, `CCn1c(=O)n(CCO)c(=O)c2c1nc(/C=C/c1ccc(OC)c(OC)c1)n2C` is recorded as about 14% (healthy human subjects, plasma; oral, 40 mg istradefylline, with: rifampin 600 mg/day; reference: metabolite over parent).
`O=C(Nc1nccs1)C(c1cc(F)ccc1O)N1Cc2ccccc2C1=O` (stereo not drawn) has a recovery of 89.5 ± 4.7% (mouse plasma; 6 ng/mL, 24 h, room temperature, short-term stability, low QC).
The log beta of `O=C(O)[C@@H]1C[C@@H](O)CN1C(=O)[C@@H]1CCCN1` is reported as 30.9 (potentiometric titration; 40 °C, MA3 complex, with: Fe(III)).
`Cc1ccc(/N=N/c2c(O)ccc3ccccc23)c(C)c1` — result for “elimination rate constant”: 0.000106 s⁻¹ (Sprague-Dawley rats both sexes, whole blood; oral, 50 mg/kg).
`Cc1ccc(OCC(=O)N(Cc2cccs2)c2ccn[nH]2)cc1` gave a dose-normalised AUC(0-last) of 0.164 ng·h/mL/mg/kg (Sprague-Dawley rat, male, plasma; oral gavage, 10 mg/kg).
Under “intersystem crossing yield”, `COCCOCCOCCOCCOCCOCCOCCOCCC(=O)NCCCc1cc2cc3nc(cc4[nH]c(cc5nc(c(OC)c1[nH]2)C(=O)C5(C)C)cc4CCc1ccc(C(=O)O)cc1)CC3(C)C` is recorded as 0.47 (water with 5% DMF; room temperature).
Under oral bioavailability, `COc1ccnc(C[S+]([O-])c2nc3cc(-n4cccc4)ccc3[nH]2)c1C` (stereo not drawn) is recorded as “increased” (Sprague Dawley rats; po, racemate dosed; reference: R-ilaprazole).
`COC(=O)c1ccc(-c2cn(Cc3cc(Cl)ccc3O[11CH3])nn2)cc1` gave a peak SUV of over 3 (PET/MR; rhesus monkey, whole brain; iv).
With `CCCC[C@H](NC(C)=O)C(=O)N[C@H]1CC(=O)NCCCC[C@@H](C(=O)N[C@@H](C(=O)N2CCC[C@@H]2C(N)=O)C(C)C)NC(=O)[C@H](Cc2c[nH]c3ccccc23)NC(=O)[C@H](CCCN=C(N)N)NC(=O)[C@@H](Cc2ccc3ccccc3c2)NC(=O)[C@@H]2CCCN2C1=O` the plasma histamine was 8.8 ng/mL (healthy dogs, plasma; subcutaneous, 2.25 mg/kg per day, day 1, 1 h post-dose, median).
Under “radioactive dose excreted in urine”, `CC(OC1OC(C(=O)O)C(O)C(O)C1O)c1nc(-c2ccc3c(c2)CCC3NC(=O)c2cnn(C)c2)no1` (stereo not drawn) is recorded as 0.885% (human, pooled urine; oral, 20 mg; reference: dose).
`COc1cc(NC(C)=O)c2c(c1O)-c1c(OC)c(OC)cc3c1C(C2)N(C)CC3` (stereo not drawn) has a remaining compound of 100 ± 1.2% (rat kidney homogenate; 5 µg/mL, 4 h, room temperature, short-term storage).
For `CC(C)C[C@H](NC(=O)C[C@H](O)[C@H](CC(C)C)NC(=O)[C@H](Cc1c[nH]cn1)NC(=O)CNC(=O)[C@@H](NC(=O)[C@H](C)NC(=O)[C@H](Cc1c[nH]c2ccccc12)NC(=O)[C@H](CCC(N)=O)NC(=O)[C@@H](Cc1ccccc1)NC(=O)CCNC(=O)CCNC(=O)CN1CCN(CC(=O)O)CCN(CC(=O)O)CCN(CC(=O)O)CC1)C(C)C)C(N)=O` [lutetium-177 labelled], “intact fraction in blood” read 48% (radio-HPLC; mouse; intraperitoneal, 25 MBq/200 pmol, 15 min).
`O=C1c2sc(-c3ccc(N4CCC(F)C4)nc3F)nc2CCN1c1cccnc1` (stereo not drawn): “peak brain uptake” 2.7 % injected dose (PET imaging; rhesus monkey, whole brain; intravenous bolus).
For `CSCOC1C(=O)C2(C)C(OCSC)CC3OCC3(OC(C)=O)C2C(OC(=O)c2ccccc2)C2(O)CC(OC(=O)C(O)C(C=C(C)C)NC(=O)OC(C)(C)C)C(C)=C1C2(C)C` (stereo not drawn), the Vd was 40.9 L/kg (male Sprague-Dawley rat, plasma; intravenous, 4 mg/kg).
`COc1cc(C)c(Cc2ccc(O)cc2)cc1[C@@H]1S[C@H](CO)[C@@H](O)[C@H](O)[C@H]1O` gave an AUC(0-τ) ratio of 0.148 ± 0.0136 (Japanese T2DM patients, plasma; 5 mg luseogliflozin, day 7, once daily; reference: compound over luseogliflozin).
The absorbed dose of `[11CH3]c1ccc2nc(C3CCC3)n(-c3ccc4[nH]ncc4c3)c2n1` is reported as 6.3 µSv/MBq (extrapolated from mouse; human female, Upper large intestine wall).
`C=C(c1ccc(C(=O)O)c(F)c1)c1cc2c(cc1C)C(C)(C)C=CC2(C)C` has a blood triglycerides of 286 ± 73.7 mg/dL (Sprague-Dawley rat, male; oral, 100 mg/kg, 12 h, sesame oil vehicle).
With `CN(C)c1ccc(-c2nc3ccc(OCCCCCN4CCN5CCN(CC4)CC(=O)[O][Al]([18F])[O]C(=O)C5)cc3s2)cc1` the intestine uptake was 14.2 ± 4.03 % injected dose/organ (ICR mouse; intravenous, dose not given, 30 min).
The AUC(0-t) of `NC(=O)c1cnc2[nH]ccc2c1NC1C2CC3CC1CC(OS(=O)(=O)O)(C3)C2` (stereo not drawn) is reported as 2920 ng·h/mL (Japanese adults, normal hepatic function, plasma; oral, 150 mg single dose).
`Cc1ccc(N2Cc3cc(NC(=O)N4CCN(c5ccc(F)cc5)CC4)ccc3C2=O)cc1` — result for “remaining parent compound”: 87.3 ± 1.04% (mouse C57BL/6, liver microsomes; 90 min).
With `CCCC[C@H](NC(=O)CNC(=O)CNC(=O)CN1CCN(CC(=O)O)CCN(CC(=O)O)CC1)C(=O)N[C@H]1CC(=O)NCCCC[C@@H](C(N)=O)NC(=O)[C@H](Cc2c[nH]c3ccccc23)NC(=O)[C@H](CCCNC(=N)N)NC(=O)[C@@H](Cc2ccccc2)NC(=O)[C@H](Cc2c[nH]cn2)NC1=O` [gallium-67 labelled] the urinary excretion was 94.57 ± 0.25% (C57 mice, female, B16/F1 melanoma, urine; intravenous, 0.037 MBq, 24 h).
`CC(=O)N([O-])CCCCCNC(=O)CCC(=O)N([O-])CCCCCNC(=O)CCC(=O)N([O-])CCCCCN.[89Zr+4]` has an intact complex of 97 ± 0.2% (radio-iTLC; aqueous buffer; initial, pH 5.0, 37 °C, EDTA challenge, with: 100-fold excess EDTA).
`N=C(N)NCCC[C@@H]1NC(=O)[C@H](Cc2c[nH]c3ccccc23)NC(=O)[C@@H](CC2CCCCC2)NC(=O)[C@@H]2CCCN2C(=O)[C@@H](NC(=O)CCc2ccccc2)CCCNC1=O`: “alpha distribution rate constant” 0.9 h⁻¹ (C57BL/6J mouse, spinal cord; oral, 1 mg/kg, single dose, two-compartment model).
`CNC(=O)c1cc(C)ccc1NC(=O)c1ccc(-c2cc(O)ccc2C)c(C)c1` gave a half-life of over 25 min (metabolic stability; mouse, liver microsomes; 2 µM).
With `Oc1ccc(C(F)(F)F)cc1-c1nc2c(Cl)cc(Cl)cc2[nH]1` the hemolysis was under 50% (defibrinated sheep blood; 400 µM; reference: 1% Triton X-100).
